Values quoted from earlier work as cited in several papers.
Protocols differ between the studies behind these lines. ± marks the error that the study gave.
Tubulin alpha-1B chain/TUBB2B: Tubulin alpha-1B chain/TUBB2B (Bos taurus, UniProt P81947+Q6B856)

With `CC(=N)NCc1cccc(CN)c1` the inhibition was 80 to 90% (Nitric oxide synthase 1 (Nos1, Rattus norvegicus, UniProt P29476); NMDA-evoked cGMP accumulation; 1 µM).
With `CCOC(=O)C(NC(=O)CN1C(=O)N/C(=C\c2ccc3c(c2)OCO3)C1=O)C(C)C` (stereo not drawn) the inhibition was 28.3 ± 17.3% (α-glucosidase; enzyme activity; 100 µM).
With `CNCCNC(=O)CN1C(=O)Cc2c([nH]c3ccc(Br)cc23)-c2ccc(Cl)cc21` the inhibition was 40 to 60% (Trypanothione synthetase (Trypanosoma brucei brucei, UniProt Q8IEX1); enzyme activity; 30 µM).
With `O=C(O)C1Nc2c(I)cccc2C2C=CCC12` (stereo not drawn) the inhibition was 74% (glucokinase (Trypanosoma cruzi); enzyme activity, inhibitor; 20 µM).
For `C#CCOc1ccc(/C=C2\SC(=O)N(CC(=O)NCc3ccccc3)C2=O)cc1`, the inhibition was roughly 8.8% (aldose reductase; 10 µM).
Under inhibition, `CCOC(=O)C(CC)NC(=O)CN1C(=O)S/C(=C\c2ccc(C)cc2)C1=O` (stereo not drawn) is recorded as “inactive” (α-glucosidase; enzyme activity; 100 to 200 µM).
With `CCC1=C(O)c2c(oc(-c3cccc4ccccc34)cc2=O)C(CC)(CC)C1=O` the inhibition was 43% (Tubulin alpha-1B chain/TUBB2B; concentration not given).
The inhibition of `CCOC(=O)C(NC(=O)CN1C(=O)/C(=C/c2ccc([N+](=O)[O-])cc2)SC1=S)C(C)C` (stereo not drawn) is reported as 20.8 ± 13.9% (α-glucosidase; enzyme activity; 100 µM).
`CC(C)(C)CCN1C[C@@H]2[C@@H](CNC(=O)c3cc(Cl)cc(Cl)c3)[C@@H]2C1.Cl` gave an inhibition of 5 to 10% (Cav1.4 channel; calcium current; cone photoreceptors; 5 µM, not significant).
`Cc1ccc(-c2nc3ccc(NC(=O)CCl)cc3[nH]2)cc1` has an inhibition of 88% (EGFR; inhibitor; concentration not given).
`CCC1=C(O)c2c(oc(-c3ccc(OC)c4ccccc34)cc2=O)C(CC)(CC)C1=O` gave an inhibition of 31% (Tubulin alpha-1B chain/TUBB2B; concentration not given).
`CC(=O)Nc1ccc(/N=N/c2ccc(OC[C@@H](O)CNC(C)C)cc2)cc1`: inhibition “inactive” (Beta-2 adrenergic receptor (ADRB2, Homo sapiens, UniProt P07550); inhibitor; concentration not given).

For quick reference, copied from above:
The inhibition of `CCOC(=O)C(NC(=O)CN1C(=O)/C(=C/c2ccc([N+](=O)[O-])cc2)SC1=S)C(C)C` (stereo not drawn) is reported as 20.8 ± 13.9% (α-glucosidase; enzyme activity; 100 µM).
`CC(C)(C)CCN1C[C@@H]2[C@@H](CNC(=O)c3cc(Cl)cc(Cl)c3)[C@@H]2C1.Cl` gave an inhibition of 5 to 10% (Cav1.4 channel; calcium current; cone photoreceptors; 5 µM, not significant).
